Measured values from different studies.
“And” joins repeats or separate records; there may be more than shown.
Target: cGMP-dependent protein kinase 2 (PRKG2, Homo sapiens, UniProt Q13237)

SMILES | effect on | action | method | tested at | reference | endpoint | result
C=CC(=O)Nc1cccc(-c2cnc3[nH]cc(C(=O)NC(C)(C)C)c3n2)c1 | enzyme activity | inhibitor |  | 0.1 µM |  | inhibition | 1%
CN1CCN(Cc2ccc(-c3ccc(CO[C@H]4CCC[C@@H]4NC(=O)c4cc(-c5cnn(C)c5)cnc4N)cc3)cc2)CC1 | enzyme activity | inhibitor |  | 0.1 µM |  | inhibition | 6%
COc1c(Cl)cccc1Nc1c(-c2ccncc2C#C[C@@]2(C)CCCN2C(=O)/C=C/CN(C)C)[nH]c2c1C(=O)NCC2 | binding |  | competition with immobilised ligand | 3 µM |  | remaining binding | 98%
Nc1ncc(-c2cc(-c3cnn(CC(F)(F)F)c3)ncc2F)nc1C(=O)NC1CNCC(F)C1 (stereo not drawn) | enzyme activity |  |  | 1 µM | DMSO control | remaining activity | 103%
C=CC(=O)N1CCc2ccc(-n3c(=O)ccc4cnc5ccc(-c6cnn(C)c6)cc5c43)cc21 |  |  | KINOMEscan | 1 µM | DMSO control | remaining binding | 87%
CN1CC[C@@H](COc2cnc(C#N)cc2-c2ccn3nc(NC(=O)C4CC4)cc3c2)C1 | enzyme activity | inhibitor |  | 1 µM |  | inhibition | 3%
CNC(=O)C1CCN(c2cc(C)c(F)cc2NC(=O)c2ccc(-c3cc(O)ccc3C)c(C)c2)CC1 | binding |  | competition with immobilised ligand | 1 µM |  | remaining binding | 94%
Nc1ncc2c(n1)-c1c([nH]c3ccc(C4=CCOCC4)cc13)CCC2 | binding |  | competition with immobilised ligand | 1 µM |  | remaining binding | 94%
NC(=O)[C@@H](O)C[C@H]1CCc2sc3ncnc(O[C@H]4CC[C@H](N5CCOCC5)CC4)c3c21 | enzyme activity | inhibitor |  | 10 µM |  | inhibition | 10%
C=CC(=O)N1Cc2nc(-c3cc(-c4cc(Cl)cnc4Cl)c(F)cc3F)n(-c3ccncn3)c2C1 | cell-free assay | inhibitor |  | 1 µM |  | inhibition | 9.6%
COc1cc(Nc2nccc(-c3cnn4nc(OC)ccc34)n2)cc(C(F)(F)F)c1 | binding |  | competition with immobilised ligand | 1 µM |  | remaining binding | 83%
COCC12C(=O)NC3C4(C(OC)CC1O)C1CC5(O)C(OC)C(O)C(OC(C)=O)(C1C5OC(=O)c1ccccc1)C3(O)C(OC)C24 (stereo not drawn) | kinase activity | inhibitor | ProQinase kinase profiling | 25 µM | control | remaining activity | 117% and 110%

A few entries again:
SMILES | effect on | action | method | tested at | reference | endpoint | result
C=CC(=O)Nc1cccc(-c2cnc3[nH]cc(C(=O)NC(C)(C)C)c3n2)c1 | enzyme activity | inhibitor |  | 0.1 µM |  | inhibition | 1%
CNC(=O)C1CCN(c2cc(C)c(F)cc2NC(=O)c2ccc(-c3cc(O)ccc3C)c(C)c2)CC1 | binding |  | competition with immobilised ligand | 1 µM |  | remaining binding | 94%
